# Measured values from different studies.
# Parts stem from different laboratories: compare values within a part only.
# UniProt Q8TDC3, sequence (whole entry, looked up): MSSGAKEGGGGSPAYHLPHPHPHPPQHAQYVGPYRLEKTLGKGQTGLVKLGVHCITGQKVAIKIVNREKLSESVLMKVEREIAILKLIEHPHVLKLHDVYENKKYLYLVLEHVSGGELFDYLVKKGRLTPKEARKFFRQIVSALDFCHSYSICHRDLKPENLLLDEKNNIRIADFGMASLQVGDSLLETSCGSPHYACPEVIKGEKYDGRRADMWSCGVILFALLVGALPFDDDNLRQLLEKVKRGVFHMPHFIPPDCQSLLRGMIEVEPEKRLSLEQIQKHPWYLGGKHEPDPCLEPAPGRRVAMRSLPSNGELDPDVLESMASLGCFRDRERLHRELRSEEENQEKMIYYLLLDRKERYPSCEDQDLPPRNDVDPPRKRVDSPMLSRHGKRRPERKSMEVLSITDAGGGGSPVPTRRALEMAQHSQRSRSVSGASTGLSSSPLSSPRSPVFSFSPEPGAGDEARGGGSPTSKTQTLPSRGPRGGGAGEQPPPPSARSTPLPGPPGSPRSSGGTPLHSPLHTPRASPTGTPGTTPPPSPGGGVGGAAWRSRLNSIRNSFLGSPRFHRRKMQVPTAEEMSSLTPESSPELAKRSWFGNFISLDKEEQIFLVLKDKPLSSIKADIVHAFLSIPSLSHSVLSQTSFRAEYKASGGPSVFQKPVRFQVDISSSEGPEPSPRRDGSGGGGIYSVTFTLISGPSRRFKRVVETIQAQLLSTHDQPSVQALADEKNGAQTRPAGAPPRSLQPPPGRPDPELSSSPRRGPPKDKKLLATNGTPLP
# UniProt P10398, sequence (whole entry, looked up): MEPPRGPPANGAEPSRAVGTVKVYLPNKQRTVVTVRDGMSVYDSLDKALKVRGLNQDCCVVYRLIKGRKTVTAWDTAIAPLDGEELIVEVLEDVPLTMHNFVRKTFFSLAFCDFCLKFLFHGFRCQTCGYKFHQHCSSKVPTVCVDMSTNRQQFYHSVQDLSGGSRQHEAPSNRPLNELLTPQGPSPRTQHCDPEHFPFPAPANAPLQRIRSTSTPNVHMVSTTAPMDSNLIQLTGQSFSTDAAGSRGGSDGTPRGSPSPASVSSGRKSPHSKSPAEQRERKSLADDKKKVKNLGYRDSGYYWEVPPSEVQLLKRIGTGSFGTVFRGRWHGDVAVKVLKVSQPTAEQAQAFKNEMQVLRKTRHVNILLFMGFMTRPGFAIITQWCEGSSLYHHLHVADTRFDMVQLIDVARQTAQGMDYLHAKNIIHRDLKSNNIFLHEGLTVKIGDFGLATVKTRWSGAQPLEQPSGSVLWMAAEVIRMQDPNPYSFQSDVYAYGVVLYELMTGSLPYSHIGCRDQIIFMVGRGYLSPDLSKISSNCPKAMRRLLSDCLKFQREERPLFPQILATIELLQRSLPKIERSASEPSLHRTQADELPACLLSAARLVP
# UniProt P49137, sequence (whole entry, looked up): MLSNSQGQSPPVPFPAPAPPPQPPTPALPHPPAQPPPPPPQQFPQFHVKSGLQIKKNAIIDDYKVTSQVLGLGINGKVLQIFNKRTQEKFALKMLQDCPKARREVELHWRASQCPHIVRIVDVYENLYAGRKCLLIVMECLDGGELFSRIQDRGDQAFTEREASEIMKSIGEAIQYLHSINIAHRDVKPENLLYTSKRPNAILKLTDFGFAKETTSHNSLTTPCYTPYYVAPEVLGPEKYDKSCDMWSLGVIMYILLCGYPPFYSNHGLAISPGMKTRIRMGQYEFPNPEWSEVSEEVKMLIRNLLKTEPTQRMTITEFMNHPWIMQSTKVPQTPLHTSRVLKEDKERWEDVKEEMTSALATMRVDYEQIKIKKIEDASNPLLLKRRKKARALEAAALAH
# UniProt Q9Y6M4, sequence (whole entry, looked up): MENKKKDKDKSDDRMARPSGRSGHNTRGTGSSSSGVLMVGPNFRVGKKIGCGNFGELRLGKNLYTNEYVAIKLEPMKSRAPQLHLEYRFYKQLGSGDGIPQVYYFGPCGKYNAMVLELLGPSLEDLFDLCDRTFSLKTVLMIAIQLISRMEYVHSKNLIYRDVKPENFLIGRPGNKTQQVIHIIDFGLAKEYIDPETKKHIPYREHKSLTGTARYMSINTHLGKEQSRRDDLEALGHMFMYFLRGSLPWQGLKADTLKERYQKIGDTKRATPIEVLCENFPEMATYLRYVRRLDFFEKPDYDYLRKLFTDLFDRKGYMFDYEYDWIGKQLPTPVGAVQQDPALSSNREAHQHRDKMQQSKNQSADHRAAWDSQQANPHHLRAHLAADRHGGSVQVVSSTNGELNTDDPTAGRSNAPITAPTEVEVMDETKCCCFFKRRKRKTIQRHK
# UniProt P52333, sequence (whole entry, looked up): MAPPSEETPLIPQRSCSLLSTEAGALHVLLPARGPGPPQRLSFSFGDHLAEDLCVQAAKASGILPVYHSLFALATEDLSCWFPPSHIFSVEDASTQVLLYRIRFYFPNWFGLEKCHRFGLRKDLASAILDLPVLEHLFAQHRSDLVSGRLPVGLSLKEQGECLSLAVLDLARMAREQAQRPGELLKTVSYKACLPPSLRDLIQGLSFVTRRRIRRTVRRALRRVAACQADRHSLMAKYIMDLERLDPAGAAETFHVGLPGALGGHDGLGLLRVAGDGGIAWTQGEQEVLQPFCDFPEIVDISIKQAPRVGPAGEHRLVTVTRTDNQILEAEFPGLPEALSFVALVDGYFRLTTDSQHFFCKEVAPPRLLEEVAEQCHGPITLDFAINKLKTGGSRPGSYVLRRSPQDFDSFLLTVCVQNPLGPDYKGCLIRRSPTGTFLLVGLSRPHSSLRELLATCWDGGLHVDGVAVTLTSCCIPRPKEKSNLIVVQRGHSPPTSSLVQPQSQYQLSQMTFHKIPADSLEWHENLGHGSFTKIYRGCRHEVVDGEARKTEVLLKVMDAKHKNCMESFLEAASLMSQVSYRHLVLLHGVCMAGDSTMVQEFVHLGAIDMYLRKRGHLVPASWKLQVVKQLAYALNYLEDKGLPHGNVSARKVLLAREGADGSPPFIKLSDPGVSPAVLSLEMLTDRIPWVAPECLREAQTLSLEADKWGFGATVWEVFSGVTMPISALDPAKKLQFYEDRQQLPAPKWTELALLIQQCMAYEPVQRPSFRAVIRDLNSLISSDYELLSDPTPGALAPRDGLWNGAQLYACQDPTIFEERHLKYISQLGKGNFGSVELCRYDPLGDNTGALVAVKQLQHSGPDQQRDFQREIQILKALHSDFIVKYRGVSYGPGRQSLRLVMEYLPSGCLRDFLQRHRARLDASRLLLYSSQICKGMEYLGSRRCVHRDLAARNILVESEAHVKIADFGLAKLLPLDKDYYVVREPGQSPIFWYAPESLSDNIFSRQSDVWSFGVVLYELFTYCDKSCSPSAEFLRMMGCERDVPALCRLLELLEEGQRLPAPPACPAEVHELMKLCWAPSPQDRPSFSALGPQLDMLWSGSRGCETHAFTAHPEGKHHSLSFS
# UniProt Q08345, sequence (whole entry, looked up): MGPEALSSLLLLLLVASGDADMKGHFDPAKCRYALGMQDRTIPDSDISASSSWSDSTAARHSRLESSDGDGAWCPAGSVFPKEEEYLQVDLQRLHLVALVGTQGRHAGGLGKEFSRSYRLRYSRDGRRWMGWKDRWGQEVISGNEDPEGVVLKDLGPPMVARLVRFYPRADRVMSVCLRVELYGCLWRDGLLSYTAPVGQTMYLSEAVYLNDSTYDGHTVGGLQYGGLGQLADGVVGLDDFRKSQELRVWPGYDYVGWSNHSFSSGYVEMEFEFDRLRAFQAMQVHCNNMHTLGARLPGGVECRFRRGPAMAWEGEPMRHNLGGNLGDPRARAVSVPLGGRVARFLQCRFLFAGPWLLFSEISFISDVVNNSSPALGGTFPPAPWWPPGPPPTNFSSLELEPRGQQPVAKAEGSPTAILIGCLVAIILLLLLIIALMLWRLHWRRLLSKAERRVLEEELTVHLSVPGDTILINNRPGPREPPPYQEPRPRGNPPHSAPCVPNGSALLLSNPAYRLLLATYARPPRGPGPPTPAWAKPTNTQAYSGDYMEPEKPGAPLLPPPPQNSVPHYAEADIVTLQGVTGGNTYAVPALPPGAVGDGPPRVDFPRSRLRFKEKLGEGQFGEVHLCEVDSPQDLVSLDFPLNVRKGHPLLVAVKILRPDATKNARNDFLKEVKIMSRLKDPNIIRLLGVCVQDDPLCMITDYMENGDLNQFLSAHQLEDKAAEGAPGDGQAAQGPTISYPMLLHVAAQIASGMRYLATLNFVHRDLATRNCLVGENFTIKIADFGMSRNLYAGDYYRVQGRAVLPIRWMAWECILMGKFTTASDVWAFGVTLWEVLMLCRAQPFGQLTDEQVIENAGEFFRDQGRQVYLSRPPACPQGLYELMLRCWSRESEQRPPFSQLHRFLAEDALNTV
# UniProt P49841, sequence (whole entry, looked up): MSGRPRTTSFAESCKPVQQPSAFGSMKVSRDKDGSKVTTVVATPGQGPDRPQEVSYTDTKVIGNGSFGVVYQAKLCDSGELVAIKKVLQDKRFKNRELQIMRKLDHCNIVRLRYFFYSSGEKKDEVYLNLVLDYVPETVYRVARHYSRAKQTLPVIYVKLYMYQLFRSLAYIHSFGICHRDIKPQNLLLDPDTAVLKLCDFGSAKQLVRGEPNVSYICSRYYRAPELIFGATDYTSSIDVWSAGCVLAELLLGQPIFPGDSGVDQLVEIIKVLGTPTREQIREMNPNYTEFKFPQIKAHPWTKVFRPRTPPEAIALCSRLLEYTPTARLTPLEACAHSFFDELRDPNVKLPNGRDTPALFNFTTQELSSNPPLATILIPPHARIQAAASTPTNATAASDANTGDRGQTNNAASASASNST
# UniProt Q9HC98, sequence (whole entry, looked up): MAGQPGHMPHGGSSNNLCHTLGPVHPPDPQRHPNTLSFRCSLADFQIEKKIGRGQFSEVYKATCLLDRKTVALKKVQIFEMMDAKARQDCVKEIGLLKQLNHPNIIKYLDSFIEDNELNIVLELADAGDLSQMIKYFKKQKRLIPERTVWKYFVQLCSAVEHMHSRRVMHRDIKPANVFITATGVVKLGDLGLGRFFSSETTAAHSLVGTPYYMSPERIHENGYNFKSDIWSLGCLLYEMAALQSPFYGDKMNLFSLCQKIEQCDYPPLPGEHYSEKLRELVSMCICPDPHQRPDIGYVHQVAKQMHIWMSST

# Study 1
# Structure (SMILES): CN(C)c1ncnc(-c2ccc3nc(Nc4cc(CN5CCN(C(=O)CC(F)(F)F)CC5)ccn4)[nH]c3c2)c1Cl
# Read-out: cell-free assay
# Method: competition with immobilised ligand
# Concentration: 1 µM
target,remaining binding [%]
"Mast/stem cell growth factor receptor Kit (KIT, Homo sapiens, UniProt P10721, V559D/V654A)",100
"Epithelial discoidin domain-containing receptor 1 (DDR1, Homo sapiens, UniProt Q08345)",75
"Serine/threonine-protein kinase Sgk3 (SGK3, Homo sapiens, UniProt Q96BR1)",72
"Serine/threonine-protein kinase PLK2 (PLK2, Homo sapiens, UniProt Q9NYY3)",100
"Serine/threonine-protein kinase BRSK1 (BRSK1, Homo sapiens, UniProt Q8TDC3)",100
"Tyrosine-protein kinase TXK (TXK, Homo sapiens, UniProt P42681)",95

# Study 2
# Target: Interferon regulatory factor 5, full length, phosphomimetic (IRF5, Homo sapiens, UniProt Q13568-2, residues 1-514, S451D/S453D/S456D/S462D)
# Method: protein-binding microarray
# Molecule type: double-stranded DNA, one strand shown
# Matrix: in vitro
# Concentration: 940 nM top
# Notes: 60-bp whole probe
# With: salmon DNA 0.4 mg/ml
# Baseline: random background probes
# Direction: higher = stronger binding
# Shared flanks, not repeated: GCCTAGCAC … GTCTTGATTCGCTTGACGCTGCTG
Oligonucleotide,fitted relative affinity [z-score]
TTAGGTATCGGTTTCGGCTAGTGCTAG,11.5
GTAGGACTGGGTATCGGTTAGTGCTAG,3.2
TTAGATATCTGTTTCGATTAGTGCTAG,3.43
CAGGTTTTGCTAAGTCAACTGGTGCTA,0.473
ACCCATCTCAAGTAGCCTAGCGTGCTA,0.3
TTAGGTTTCCTTCTCCTTTGGTGCTAG,1.76
GACGGTATCGGGTTACGGGACGTGCTA,5.49
GACGGTCTCCTACTGCTGAAGTGCTAG,-0.096

# Study 3
# SMILES: CN(C)CCCn1cc(C2=C(c3c[nH]c4ccccc34)C(=O)NC2=O)c2ccccc21
# Read-out: enzyme activity
# Action: inhibitor
# Concentration: 0.5 µM
# Baseline: control
target,remaining activity [%]
"Glycogen synthase kinase-3 beta (GSK3B, Homo sapiens, UniProt P49841)",7.01
"Tyrosine-protein kinase JAK3 (JAK3, Homo sapiens, UniProt P52333)",81.5
"Mitogen-activated protein kinase kinase kinase 14 (MAP3K14, Homo sapiens, UniProt Q99558)",110
"Serine/threonine-protein kinase Nek6 (NEK6, Homo sapiens, UniProt Q9HC98)",96.3
"Activin receptor type-1B (ACVR1B, Homo sapiens, UniProt P36896)",106
"MAP kinase-activated protein kinase 2 (MAPKAPK2, Homo sapiens, UniProt P49137)",85.4
"Serine/threonine-protein kinase TBK1 (TBK1, Homo sapiens, UniProt Q9UHD2)",83.8
"Serine/threonine-protein kinase A-Raf (ARAF, Homo sapiens, UniProt P10398)",100
"Serine/threonine-protein kinase ULK2 (ULK2, Homo sapiens, UniProt Q8IYT8)",145
"Serine/threonine-protein kinase Nek1 (NEK1, Homo sapiens, UniProt Q96PY6)",92.5
"Casein kinase I isoform gamma-3 (CSNK1G3, Homo sapiens, UniProt Q9Y6M4)",96.9
"Mitogen-activated protein kinase 3 (MAPK3, Homo sapiens, UniProt P27361)",108
"Mitogen-activated protein kinase kinase kinase 5 (MAP3K5, Homo sapiens, UniProt Q99683)",90.2

# Study 4
# Target: Prothrombin, mature alpha-thrombin (F2, Homo sapiens, UniProt P00734)
# Method: aptamer microarray, sandwich
# Molecule type: DNA with 2'F-ANA
# Matrix: in vitro
# Concentration: 200 nM
# Notes: whole 15-mer aptamer, many near background
# With: Cy3 exosite-II aptamer, 400 nM
# Direction: higher = stronger binding
# Oligonucleotide: GGTTGGTGTGGTTGG
Modification,mean fluorescence intensity [a.u.]
2'F-ANA at 1 2 3 5 7 9 10 12 13 14 15,48
2'F-ANA at 1 2 3 6 7 8 11 12 13 15,324
2'F-ANA at 1 2 3 9 10 12 15,103
2'F-ANA at 1 6 7 9 11 13 14 15,54.7
2'F-ANA at 1 2 3 5 7 10 12 14,63.1
2'F-ANA at 2 9 12 13 15,569
2'F-ANA at 1 4 5 6 7 11 12 14 15,46.6
2'F-ANA at 1 7 8 9 11 12 14,103

# Excerpt of the above (study 2):
Oligonucleotide,fitted relative affinity [z-score]
TTAGGTTTCCTTCTCCTTTGGTGCTAG,1.76
GACGGTATCGGGTTACGGGACGTGCTA,5.49
